Results collected from several papers.
Each line is one published result; not all experiments were run side by side.
Target: Fibroblast growth factor receptor 4 (FGFR4, Homo sapiens, UniProt P22455)
Chain of UniProt P22455 (whole entry, looked up): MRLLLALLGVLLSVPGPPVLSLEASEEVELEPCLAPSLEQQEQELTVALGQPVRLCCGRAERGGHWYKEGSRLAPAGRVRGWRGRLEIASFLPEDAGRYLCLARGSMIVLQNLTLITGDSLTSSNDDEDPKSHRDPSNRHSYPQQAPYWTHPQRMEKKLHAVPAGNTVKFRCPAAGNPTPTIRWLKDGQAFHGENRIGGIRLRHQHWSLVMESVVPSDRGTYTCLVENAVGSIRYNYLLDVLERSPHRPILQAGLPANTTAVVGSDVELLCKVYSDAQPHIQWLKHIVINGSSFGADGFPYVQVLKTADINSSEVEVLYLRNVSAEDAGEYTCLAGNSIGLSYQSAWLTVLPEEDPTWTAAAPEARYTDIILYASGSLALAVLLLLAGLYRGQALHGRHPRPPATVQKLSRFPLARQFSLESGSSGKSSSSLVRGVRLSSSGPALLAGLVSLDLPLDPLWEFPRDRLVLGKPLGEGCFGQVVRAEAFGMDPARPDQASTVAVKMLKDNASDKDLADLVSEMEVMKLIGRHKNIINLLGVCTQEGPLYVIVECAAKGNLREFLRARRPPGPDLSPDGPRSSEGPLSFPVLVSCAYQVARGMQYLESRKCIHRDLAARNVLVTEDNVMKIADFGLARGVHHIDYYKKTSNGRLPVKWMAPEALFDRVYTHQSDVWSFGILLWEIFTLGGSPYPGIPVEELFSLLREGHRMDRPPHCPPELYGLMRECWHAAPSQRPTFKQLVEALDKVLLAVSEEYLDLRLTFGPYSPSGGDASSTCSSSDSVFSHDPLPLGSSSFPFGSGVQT

O=C1Nc2ccc(-c3ccc(-c4ccc(O)cc4)cc3)cc2/C1=C/c1ccc(N2CCNCC2)cc1  IC50 (enzyme activity, inhibitor): 18 µM
COc1cc(OC)cc(C(O)c2c[nH]c3ncc(C(F)(F)F)cc23)c1 (stereo not drawn)  IC50 (enzyme activity, inhibitor): > 3 µM
CN1CCN(C(=O)c2ccc(-c3ccc4c(c3)/C(=C/c3ccc(N5CCOCC5)cc3)C(=O)N4)cc2)CC1  IC50 (enzyme activity, inhibitor): 18.6 µM
Cc1nc2ccc(Cc3c[nH]c4ncc(C(F)(F)F)cc34)cc2o1  IC50 (enzyme activity, inhibitor): > 3 µM
CCN1C(=O)N(c2cc(NC(=O)c3cccc(C(F)(F)F)c3)ccc2C)Cc2cnc(Nc3ccc(C)nc3)nc21  IC50 (enzyme activity, inhibitor, radiometric): < 0.001 µM
Cc1ccc2oc(-c3c4c(N)n[nH]c(=O)c4nn3-c3ccc(NC(=O)/C=C/CN(C)C)cc3)c(C)c2c1  IC50 (enzyme activity, inhibitor, ELISA): > 1 µM
COc1cc2nccc(Oc3ccc(NC(=O)NC4CC4)c(Cl)c3)c2cc1C(N)=O  IC50 (enzyme activity, inhibitor): > 0.1 µM
O=C1Nc2ccc(-c3ccc(C(=O)N4CCCC4)cc3)cc2/C1=C/c1ccc(N2CCNCC2)cc1  IC50 (enzyme activity, inhibitor): 13.8 µM
C=C(C)C(=O)Nc1ccc(-c2c(-c3ccc(Oc4cccc(C)n4)cc3)c3c(N)ncnc3n2C)cc1  IC50 (Caliper mobility shift; 30 min preincubation, together with: 100 µM ATP): 8 µM

A few entries again:
C=C(C)C(=O)Nc1ccc(-c2c(-c3ccc(Oc4cccc(C)n4)cc3)c3c(N)ncnc3n2C)cc1  IC50 (Caliper mobility shift; 30 min preincubation, together with: 100 µM ATP): 8 µM
